Measured values pooled from the literature.
Compare with care: the assays were run in different laboratories. Values joined by “and” are separate records of one study, mostly repeats; a detail may differ.
Target: Dual specificity mitogen-activated protein kinase kinase 2 (MAP2K2, Homo sapiens, UniProt P36507)

Cc1cnc2nc1Nc1cccc(c1)COC/C=C/COCc1cc(ccc1OCCN1CCOCC1)N2 — remaining binding (binding, competition with immobilised ligand; 0.1 µM): 75%
COc1cc(Nc2nccc(-c3cnn4nc(OC)ccc34)n2)cc(C(F)(F)F)c1 — remaining binding (binding, competition with immobilised ligand; 1 µM): 83%
COc1c(Cl)cccc1Nc1c(-c2ccncc2C#C[C@@]2(C)CCCN2C(=O)/C=C/CN(C)C)[nH]c2c1C(=O)NCC2 — remaining binding (cell-free assay, competition with immobilised ligand; 3 µM): 84%
Cc1c[nH]c2nccc(-c3ccc(C(=O)N[C@@H]4c5c(F)cc(C(F)F)cc5C[C@@H]4O)cn3)c12 — remaining binding (binding, competition with immobilised ligand; 3 µM): 1.1%
Nc1ncc(-c2cc(-c3cnn(CC(F)(F)F)c3)ncc2F)nc1C(=O)NC1CNCC(F)C1 (stereo not shown) — remaining activity (enzyme activity; 1 µM; relative to: DMSO control): 101%
C=C1CCCCCCCCCC(CO)C1=O (stereo not shown) — remaining binding (cell-free assay, competition with immobilised ligand; 10 µM): 84%
Cc1ccc(-c2c(/C=C(\C#N)C(=O)NC(C)C)n(CCCO)c3ncnc(N)c23)cc1 — remaining binding (cell-free assay, competition with immobilised ligand; 1 µM): 71%
Cc1cccc(O[C@H]2CCC[C@@H](C(C)CNCc3ccncc3)C2)c1 (relative stereo) — inhibition (enzyme activity, inhibitor; 10 µM): -14%
NC(=O)[C@@H](O)C[C@H]1CCc2sc3ncnc(O[C@H]4CC[C@H](N5CCOCC5)CC4)c3c21 — inhibition (enzyme activity, inhibitor; 10 µM): 2%
CC(C)=CC1OC(C)(C)C2C=C3C(=O)C(Cl)=CC(O)C3C3C(O)C4OC4C(=O)C132 (stereo not shown) — remaining binding (cell-free assay, competition with immobilised ligand; 10 µM): 61%
CCN1CCN(Cc2ccc(C(=O)Nc3ccc(C)c(NCc4cnc5[nH]ccc5c4OC)c3)cc2C(F)(F)F)CC1 — remaining binding (binding, competition with immobilised ligand; 1 µM): 78%
COc1ccc(NC(=O)Nc2ccc3c(c2)C(=O)N(C(C)CO)CC(C)C(CN(C)Cc2ccc4c(c2)OCO4)O3)cc1 (stereo not shown) — remaining binding (binding, competition with immobilised ligand; 10 µM): 73%
C=CC(=O)Nc1cccc(-c2cnc3[nH]cc(C(=O)NC(C)(C)C)c3n2)c1 — inhibition (kinase activity; 0.1 µM): 6% and 5%
C=CC(=O)Nc1cc(-c2nn(C3CCN(CCNC(=O)[C@H](C)CCC45CC6CC(CC(C6)C4)C5)CC3)c3ncnc(N)c23)ccc1Oc1ccccc1 — inhibition (inhibitor, KiNativ profiling; biochemical; 2 µM): 40%
CN1CCN(Cc2ccc(NC(=O)c3cccc(C#Cc4cnc(N)c5ncccc45)c3)cc2C(F)(F)F)CC1 — remaining binding (cell-free assay, competition with immobilised ligand; 0.5 µM): 71%
CNC(=O)C1CCN(c2cc(C)c(F)cc2NC(=O)c2ccc(-c3cc(O)ccc3C)c(C)c2)CC1 — remaining binding (binding, competition with immobilised ligand; 1 µM): 81%

For quick reference, copied from above:
COc1ccc(NC(=O)Nc2ccc3c(c2)C(=O)N(C(C)CO)CC(C)C(CN(C)Cc2ccc4c(c2)OCO4)O3)cc1 (stereo not shown) — remaining binding (binding, competition with immobilised ligand; 10 µM): 73%
CC(C)=CC1OC(C)(C)C2C=C3C(=O)C(Cl)=CC(O)C3C3C(O)C4OC4C(=O)C132 (stereo not shown) — remaining binding (cell-free assay, competition with immobilised ligand; 10 µM): 61%
CN1CCN(Cc2ccc(NC(=O)c3cccc(C#Cc4cnc(N)c5ncccc45)c3)cc2C(F)(F)F)CC1 — remaining binding (cell-free assay, competition with immobilised ligand; 0.5 µM): 71%
